Results of several laboratories.
Each numbered part is a random draw from the data of one study; scales do not carry over between parts.
UniProt Q38830, sequence (whole entry, looked up): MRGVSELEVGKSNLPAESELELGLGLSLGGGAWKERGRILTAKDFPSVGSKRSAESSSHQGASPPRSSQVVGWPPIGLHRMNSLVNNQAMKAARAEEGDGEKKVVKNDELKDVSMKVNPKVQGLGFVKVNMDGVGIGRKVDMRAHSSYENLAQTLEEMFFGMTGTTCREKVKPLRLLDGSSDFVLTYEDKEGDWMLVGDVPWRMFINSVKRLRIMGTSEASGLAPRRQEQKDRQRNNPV
UniProt Q9C966, sequence (whole entry, looked up): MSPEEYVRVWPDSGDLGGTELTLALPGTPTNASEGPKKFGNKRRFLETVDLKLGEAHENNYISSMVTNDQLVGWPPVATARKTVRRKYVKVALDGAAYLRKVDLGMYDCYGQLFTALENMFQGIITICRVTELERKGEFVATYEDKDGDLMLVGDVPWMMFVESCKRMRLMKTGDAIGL
UniProt Q9C5W9, sequence (whole entry, looked up): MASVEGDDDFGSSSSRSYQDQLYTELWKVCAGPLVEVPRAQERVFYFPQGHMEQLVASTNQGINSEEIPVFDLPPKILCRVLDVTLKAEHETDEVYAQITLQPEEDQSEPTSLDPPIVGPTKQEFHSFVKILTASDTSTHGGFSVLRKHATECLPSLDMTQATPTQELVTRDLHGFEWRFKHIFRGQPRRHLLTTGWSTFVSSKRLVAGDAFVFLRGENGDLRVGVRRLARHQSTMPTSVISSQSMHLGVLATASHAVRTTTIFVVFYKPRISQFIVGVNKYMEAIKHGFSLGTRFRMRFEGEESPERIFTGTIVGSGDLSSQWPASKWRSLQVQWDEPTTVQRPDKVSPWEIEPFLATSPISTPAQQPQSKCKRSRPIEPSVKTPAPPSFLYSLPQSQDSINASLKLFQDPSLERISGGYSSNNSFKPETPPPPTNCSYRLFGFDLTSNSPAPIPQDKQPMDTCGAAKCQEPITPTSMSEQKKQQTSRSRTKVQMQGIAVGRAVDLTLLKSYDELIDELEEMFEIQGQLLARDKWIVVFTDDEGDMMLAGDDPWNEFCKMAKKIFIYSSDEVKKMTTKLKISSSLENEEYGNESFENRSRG
UniProt Q9ZSY8, sequence (whole entry, looked up): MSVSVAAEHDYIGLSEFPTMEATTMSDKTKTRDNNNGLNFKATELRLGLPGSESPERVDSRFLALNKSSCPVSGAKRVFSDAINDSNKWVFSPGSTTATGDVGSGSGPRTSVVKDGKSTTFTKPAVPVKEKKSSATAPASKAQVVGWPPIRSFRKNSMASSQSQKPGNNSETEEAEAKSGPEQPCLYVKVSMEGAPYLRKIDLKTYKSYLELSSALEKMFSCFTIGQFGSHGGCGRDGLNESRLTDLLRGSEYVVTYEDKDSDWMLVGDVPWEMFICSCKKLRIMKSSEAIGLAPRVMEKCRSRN
UniProt P93022, sequence (whole entry, looked up): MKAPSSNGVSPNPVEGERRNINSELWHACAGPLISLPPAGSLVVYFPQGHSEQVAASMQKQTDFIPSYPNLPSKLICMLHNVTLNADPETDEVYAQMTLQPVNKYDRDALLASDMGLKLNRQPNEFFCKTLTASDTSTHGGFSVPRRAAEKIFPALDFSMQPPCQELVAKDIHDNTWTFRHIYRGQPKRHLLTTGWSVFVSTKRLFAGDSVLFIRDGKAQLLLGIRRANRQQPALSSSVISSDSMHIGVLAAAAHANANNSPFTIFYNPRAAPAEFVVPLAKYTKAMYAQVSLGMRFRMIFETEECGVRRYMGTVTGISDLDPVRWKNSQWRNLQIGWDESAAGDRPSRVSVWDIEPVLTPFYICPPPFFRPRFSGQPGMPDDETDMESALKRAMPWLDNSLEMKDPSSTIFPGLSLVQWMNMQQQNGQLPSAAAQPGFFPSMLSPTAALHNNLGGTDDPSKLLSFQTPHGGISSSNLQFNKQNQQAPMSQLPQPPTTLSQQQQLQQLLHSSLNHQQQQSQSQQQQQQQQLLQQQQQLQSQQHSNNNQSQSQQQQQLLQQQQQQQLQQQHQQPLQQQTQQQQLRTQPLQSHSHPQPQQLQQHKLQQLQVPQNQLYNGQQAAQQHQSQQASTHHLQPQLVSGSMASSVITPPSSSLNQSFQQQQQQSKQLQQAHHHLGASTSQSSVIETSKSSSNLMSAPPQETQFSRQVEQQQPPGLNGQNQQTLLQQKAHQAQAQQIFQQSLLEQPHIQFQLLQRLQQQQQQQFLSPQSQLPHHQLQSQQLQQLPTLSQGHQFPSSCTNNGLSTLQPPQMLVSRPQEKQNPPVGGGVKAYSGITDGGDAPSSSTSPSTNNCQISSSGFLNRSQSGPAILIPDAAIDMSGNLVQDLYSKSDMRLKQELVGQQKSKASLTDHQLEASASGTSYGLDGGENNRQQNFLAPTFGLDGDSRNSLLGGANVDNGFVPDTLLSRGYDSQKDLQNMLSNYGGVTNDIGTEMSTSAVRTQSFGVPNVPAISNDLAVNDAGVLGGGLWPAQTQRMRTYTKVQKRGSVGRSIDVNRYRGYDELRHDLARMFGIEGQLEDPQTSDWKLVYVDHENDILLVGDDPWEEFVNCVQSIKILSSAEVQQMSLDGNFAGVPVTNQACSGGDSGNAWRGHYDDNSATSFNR
UniProt Q38831, sequence (whole entry, looked up): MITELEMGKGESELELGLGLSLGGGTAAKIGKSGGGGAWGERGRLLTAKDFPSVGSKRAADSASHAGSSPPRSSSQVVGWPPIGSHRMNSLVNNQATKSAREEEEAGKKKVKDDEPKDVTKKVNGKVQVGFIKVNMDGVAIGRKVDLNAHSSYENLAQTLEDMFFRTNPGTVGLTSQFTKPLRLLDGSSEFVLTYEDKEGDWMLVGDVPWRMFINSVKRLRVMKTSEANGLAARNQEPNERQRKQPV
UniProt Q9SKN5, sequence (whole entry, looked up): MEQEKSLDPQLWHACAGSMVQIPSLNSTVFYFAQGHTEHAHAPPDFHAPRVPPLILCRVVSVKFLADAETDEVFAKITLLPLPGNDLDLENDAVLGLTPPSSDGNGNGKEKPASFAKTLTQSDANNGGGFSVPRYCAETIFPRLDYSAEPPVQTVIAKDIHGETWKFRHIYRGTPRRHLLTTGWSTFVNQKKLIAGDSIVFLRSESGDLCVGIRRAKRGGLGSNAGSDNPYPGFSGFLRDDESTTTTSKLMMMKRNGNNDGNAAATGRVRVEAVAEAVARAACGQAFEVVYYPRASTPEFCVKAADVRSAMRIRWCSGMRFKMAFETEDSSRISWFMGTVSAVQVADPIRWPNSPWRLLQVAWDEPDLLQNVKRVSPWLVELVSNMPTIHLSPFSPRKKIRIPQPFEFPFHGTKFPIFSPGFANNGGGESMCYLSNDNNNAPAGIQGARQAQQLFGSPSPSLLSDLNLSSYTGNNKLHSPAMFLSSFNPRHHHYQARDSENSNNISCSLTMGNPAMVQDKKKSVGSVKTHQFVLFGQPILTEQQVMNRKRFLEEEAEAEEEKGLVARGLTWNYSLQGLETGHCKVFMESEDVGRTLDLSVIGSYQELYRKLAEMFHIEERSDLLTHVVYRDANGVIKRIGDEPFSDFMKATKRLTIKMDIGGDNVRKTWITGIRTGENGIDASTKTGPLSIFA
UniProt Q8LAL2, sequence (whole entry, looked up): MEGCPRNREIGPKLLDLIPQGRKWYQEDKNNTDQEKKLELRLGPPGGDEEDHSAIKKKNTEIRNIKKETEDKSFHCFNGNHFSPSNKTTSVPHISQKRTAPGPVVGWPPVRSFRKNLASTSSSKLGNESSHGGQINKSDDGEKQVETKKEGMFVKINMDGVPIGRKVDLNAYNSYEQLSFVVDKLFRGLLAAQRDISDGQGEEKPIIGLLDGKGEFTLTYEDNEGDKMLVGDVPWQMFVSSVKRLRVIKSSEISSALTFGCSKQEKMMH

Sample 1
Target: RNA binding protein fox-1 homolog 2, RRM domain, GST-SBP tag (RBFOX2, Homo sapiens, UniProt O43251-10, residues 100-194)
Technique: RNA Bind-n-Seq
Molecule type: RNA
Matrix: in vitro
Tested at: 365 nM
Setting: natural RNA segment, single round, ends assumed
Baseline: no-protein control
Direction: higher = stronger binding
Endpoint: RBNS enrichment (R)
Target sequence (chain): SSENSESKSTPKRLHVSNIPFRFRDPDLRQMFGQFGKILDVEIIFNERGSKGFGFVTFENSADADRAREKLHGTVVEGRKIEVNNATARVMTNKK
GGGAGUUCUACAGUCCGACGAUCGCCAUAAUCCUUCUGAAUUGUUGGCACUAAGUAAUGGGAUUUGGCCCAGUAAGUAUGACGGUCGUGUCGCCUAACCAACGCAGAGCAGUGCUUUUUGUGUGGCUGAAGCGUGGAAUUCUCGGGUGCCAA: 0.433
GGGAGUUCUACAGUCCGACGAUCUUUAACACAAGGGCCCUCCUUGUCAUUGACCUUAGCUAAACCAUGGCAAUUCAUAAAUAGAGGAAACAUUAAUGAAUUAAAAGCAUUCCUUAUUUUUUAACUAAUAUUUGUGGAAUUCUCGGGUGCCAA: 0.435
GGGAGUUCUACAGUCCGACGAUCCCCCAACUCCCCUCACCAGGAGAGGCACCUGCUUGGUGCCGCCCAGGGAAGGGGCUCAGGCCUGACGGAAGGCCUGUUCUGUGUGUGCCGCCGGGCGACGUGCAUUGAUGUGGAAUUCUCGGGUGCCAA: 0.249
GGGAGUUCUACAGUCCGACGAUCAAAAACAGUCUCCAUCUCCUCAAAAUAGUUGCUGACUCCCUGCACCCAAGGGGCCUCUCCAUGCCUUCUUAGGAAGCAGCUAUGAAUCCAUUGUCCUUGUAGUUUCUUCCUGGAAUUCUCGGGUGCCAA: 0.37
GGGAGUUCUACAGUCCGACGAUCAAUGCCAGAAGGAAAACACUAUUUUCAUACCCUACUUUUUCUGUACCUAAAUUUUCUUAAAAAAAAAUCUAGUAUAGCACUACAUUCUUUUUUAAGUGAUGCAGACCUUAUGGAAUUCUCGGGUGCCAA: 0.389
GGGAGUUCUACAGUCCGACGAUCCACUUCCAGUCCUCCUCAGAGGAUGUGAUGGUGGUAGGAGAGCCAACUCUGAUGGGAGGUGAGUUUGGGGACGAGGACGAAAGGCUAAUCACUAGAUUAGAAAACACGCAUGGAAUUCUCGGGUGCCAA: 3.64
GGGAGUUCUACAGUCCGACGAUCUCUCAUGCUGGCUUCUUCAGAUACUUUGAAAAACCCGGACAGCCACACCAGAGAGGCCUUAUAGCGGCCCCGGAGCUAAACGCACCAGAGAAAAACCAGUGCUUCCUACUUGGAAUUCUCGGGUGCCAA: 0.23
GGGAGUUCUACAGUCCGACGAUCACAAUUGGCCUUUCUGAGCUGAUUUUUCCAUCUUUUGUAAUUAUCUUUAUUAAAAAAUUGUACUUGGAUCGUUUUCUGUCUGUUUAUUAUGAAAGCUUGUUUCCAAGUCAUGGAAUUCUCGGGUGCCAA: 0.907

Sample 2
Target: Interferon regulatory factor 3, full length, phosphomimetic (IRF3, Homo sapiens, UniProt Q14653, residues 1-427, S386D/S396D/S398D/S402D/T404D/S405D)
Technique: protein-binding microarray
Molecule type: double-stranded DNA, one strand shown
Matrix: in vitro
Tested at: 2540 nM top
Setting: 60-bp whole probe
Added: salmon DNA 0.4 mg/ml
Baseline: random background probes
Direction: higher = stronger binding
Endpoint: fitted relative affinity
Constant ends, left off below: GCCTAGCAC … GTCTTGATTCGCTTGACGCTGCTG
Target sequence (chain): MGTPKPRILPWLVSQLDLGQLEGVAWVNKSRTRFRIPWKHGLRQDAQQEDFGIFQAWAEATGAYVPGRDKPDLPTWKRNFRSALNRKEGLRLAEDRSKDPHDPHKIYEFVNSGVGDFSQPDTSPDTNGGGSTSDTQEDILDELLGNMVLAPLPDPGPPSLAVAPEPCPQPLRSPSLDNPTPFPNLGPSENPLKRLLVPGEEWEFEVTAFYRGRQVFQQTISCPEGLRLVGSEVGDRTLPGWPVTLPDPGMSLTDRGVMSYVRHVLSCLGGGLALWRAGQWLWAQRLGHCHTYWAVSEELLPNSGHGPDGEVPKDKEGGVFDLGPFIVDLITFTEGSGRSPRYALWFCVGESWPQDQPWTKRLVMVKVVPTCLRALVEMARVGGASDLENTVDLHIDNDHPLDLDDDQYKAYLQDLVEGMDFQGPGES
GGGGGAAATGGGAAACCCGGGGTGCTA: 0.7 z-score
GTCGATATCAGTCTCGAGACGTGCTAG: 1.91 z-score
GACGATATCAGTCTCCAGACGTGCTAG: 1.49 z-score
AGGCATGTGGGTTCCATCATGTGCTAG: -0.508 z-score
CTGTTAAAGAATTAAGAAGGGTGCTAG: 0.349 z-score
TTAGGTTCCGCTTTCGGTTAGTGCTAG: 4.91 z-score
TTACGTTTCCTTCTCCTTTAGTGCTAG: 8.3 z-score
TTAGGACTGGACTATCCGTTAGTGCTA: -0.205 z-score

Sample 3
Sequence: B1 (IAA3)
Technique: two-hybrid
Baseline: out of 4 tests
Direction: higher = firmer interaction
Endpoint: positive tests
B1: IAA3 (Arabidopsis thaliana, UniProt Q38822); chain MDEFVNLKETELRLGLPGTDNVCEAKERVSCCNNNNKRVLSTDTEKEIESSSRKTETSPPRKAQIVGWPPVRSYRKNNIQSKKNESEHEGQGIYVKVSMDGAPYLRKIDLSCYKGYSELLKALEVMFKFSVGEYFERDGYKGSDFVPTYEDKDGDWMLIGDVPWEMFICTCKRLRIMKGSEAKGLGCGV
IAA15 (Arabidopsis thaliana, UniProt Q9C966): 4
IAA26 (Arabidopsis thaliana, UniProt Q8LAL2): 1
IAA13 (Arabidopsis thaliana, UniProt Q38831): 2
IAA12 (Arabidopsis thaliana, UniProt Q38830): 4
ARF10 575-693 (Arabidopsis thaliana, UniProt Q9SKN5): 1
ARF7 1030-1164 (Arabidopsis thaliana, UniProt P93022): 4
ARF18 482-602 (Arabidopsis thaliana, UniProt Q9C5W9): 0
IAA27 (Arabidopsis thaliana, UniProt Q9ZSY8): 4

Single results of other studies
CNC(=O)Nc1ccc2c(c1)[C@@]1(CC2)OC(=O)N(CC(=O)N(Cc2ccc(F)cc2)[C@@H](C)C(F)(F)F)C1=O  remaining binding (Hepatocyte growth factor receptor (MET, Homo sapiens, UniProt P08581); cell-free assay, competition with immobilised ligand; 1 µM): 100%

Some of these lines once more (sample 2):
GGGGGAAATGGGAAACCCGGGGTGCTA: 0.7 z-score
GTCGATATCAGTCTCGAGACGTGCTAG: 1.91 z-score
GACGATATCAGTCTCCAGACGTGCTAG: 1.49 z-score
AGGCATGTGGGTTCCATCATGTGCTAG: -0.508 z-score
